Assay results pooled from the literature.
Parts stem from different laboratories: compare values within a part only. “And” joins repeats or separate records; there may be more than shown.
Chain of UniProt P27448 (whole entry, looked up): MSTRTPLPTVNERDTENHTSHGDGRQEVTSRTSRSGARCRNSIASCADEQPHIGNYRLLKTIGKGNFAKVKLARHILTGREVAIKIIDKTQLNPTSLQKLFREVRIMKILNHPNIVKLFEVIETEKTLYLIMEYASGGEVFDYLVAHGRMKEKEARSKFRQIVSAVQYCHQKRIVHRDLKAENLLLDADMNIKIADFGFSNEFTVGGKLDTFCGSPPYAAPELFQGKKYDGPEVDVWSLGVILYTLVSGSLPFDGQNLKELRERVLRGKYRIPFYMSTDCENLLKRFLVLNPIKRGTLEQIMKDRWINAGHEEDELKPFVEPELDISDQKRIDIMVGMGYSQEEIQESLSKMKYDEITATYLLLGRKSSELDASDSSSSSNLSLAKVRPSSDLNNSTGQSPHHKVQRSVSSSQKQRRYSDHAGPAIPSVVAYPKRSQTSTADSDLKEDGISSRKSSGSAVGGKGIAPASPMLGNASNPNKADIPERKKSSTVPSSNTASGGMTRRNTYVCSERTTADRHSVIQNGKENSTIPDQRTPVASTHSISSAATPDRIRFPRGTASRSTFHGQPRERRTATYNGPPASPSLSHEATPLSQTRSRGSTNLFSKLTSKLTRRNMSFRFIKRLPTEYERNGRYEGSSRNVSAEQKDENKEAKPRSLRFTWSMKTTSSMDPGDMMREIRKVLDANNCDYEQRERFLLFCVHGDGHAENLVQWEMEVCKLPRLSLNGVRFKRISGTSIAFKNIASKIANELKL
Chain of UniProt P15735 (whole entry, looked up): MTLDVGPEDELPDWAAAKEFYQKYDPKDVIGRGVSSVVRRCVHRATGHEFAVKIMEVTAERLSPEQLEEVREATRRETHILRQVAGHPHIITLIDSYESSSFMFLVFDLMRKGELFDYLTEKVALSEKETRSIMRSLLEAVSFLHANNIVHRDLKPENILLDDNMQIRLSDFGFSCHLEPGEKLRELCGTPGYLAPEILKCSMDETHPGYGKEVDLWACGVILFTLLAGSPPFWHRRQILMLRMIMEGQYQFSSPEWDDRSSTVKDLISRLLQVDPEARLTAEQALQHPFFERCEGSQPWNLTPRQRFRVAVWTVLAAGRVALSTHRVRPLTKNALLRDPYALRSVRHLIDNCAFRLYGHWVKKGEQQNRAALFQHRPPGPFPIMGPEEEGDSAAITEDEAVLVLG
Chain of UniProt Q8WTQ7 (whole entry, looked up): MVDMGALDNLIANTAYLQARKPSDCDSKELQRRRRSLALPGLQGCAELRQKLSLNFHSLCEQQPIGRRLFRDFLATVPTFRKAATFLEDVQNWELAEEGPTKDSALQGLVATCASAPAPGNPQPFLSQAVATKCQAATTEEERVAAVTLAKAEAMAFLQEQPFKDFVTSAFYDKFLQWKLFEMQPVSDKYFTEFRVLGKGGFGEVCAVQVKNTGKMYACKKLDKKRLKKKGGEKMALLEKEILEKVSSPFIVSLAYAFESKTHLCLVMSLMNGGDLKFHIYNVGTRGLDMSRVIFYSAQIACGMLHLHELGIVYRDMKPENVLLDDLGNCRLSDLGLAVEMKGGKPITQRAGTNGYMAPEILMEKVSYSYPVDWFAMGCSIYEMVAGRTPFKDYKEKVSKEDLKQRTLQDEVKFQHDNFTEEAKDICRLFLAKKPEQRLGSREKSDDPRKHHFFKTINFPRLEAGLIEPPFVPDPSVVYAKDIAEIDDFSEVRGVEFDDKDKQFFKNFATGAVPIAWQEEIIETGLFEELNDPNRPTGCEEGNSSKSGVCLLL
Chain of UniProt P23458 (whole entry, looked up): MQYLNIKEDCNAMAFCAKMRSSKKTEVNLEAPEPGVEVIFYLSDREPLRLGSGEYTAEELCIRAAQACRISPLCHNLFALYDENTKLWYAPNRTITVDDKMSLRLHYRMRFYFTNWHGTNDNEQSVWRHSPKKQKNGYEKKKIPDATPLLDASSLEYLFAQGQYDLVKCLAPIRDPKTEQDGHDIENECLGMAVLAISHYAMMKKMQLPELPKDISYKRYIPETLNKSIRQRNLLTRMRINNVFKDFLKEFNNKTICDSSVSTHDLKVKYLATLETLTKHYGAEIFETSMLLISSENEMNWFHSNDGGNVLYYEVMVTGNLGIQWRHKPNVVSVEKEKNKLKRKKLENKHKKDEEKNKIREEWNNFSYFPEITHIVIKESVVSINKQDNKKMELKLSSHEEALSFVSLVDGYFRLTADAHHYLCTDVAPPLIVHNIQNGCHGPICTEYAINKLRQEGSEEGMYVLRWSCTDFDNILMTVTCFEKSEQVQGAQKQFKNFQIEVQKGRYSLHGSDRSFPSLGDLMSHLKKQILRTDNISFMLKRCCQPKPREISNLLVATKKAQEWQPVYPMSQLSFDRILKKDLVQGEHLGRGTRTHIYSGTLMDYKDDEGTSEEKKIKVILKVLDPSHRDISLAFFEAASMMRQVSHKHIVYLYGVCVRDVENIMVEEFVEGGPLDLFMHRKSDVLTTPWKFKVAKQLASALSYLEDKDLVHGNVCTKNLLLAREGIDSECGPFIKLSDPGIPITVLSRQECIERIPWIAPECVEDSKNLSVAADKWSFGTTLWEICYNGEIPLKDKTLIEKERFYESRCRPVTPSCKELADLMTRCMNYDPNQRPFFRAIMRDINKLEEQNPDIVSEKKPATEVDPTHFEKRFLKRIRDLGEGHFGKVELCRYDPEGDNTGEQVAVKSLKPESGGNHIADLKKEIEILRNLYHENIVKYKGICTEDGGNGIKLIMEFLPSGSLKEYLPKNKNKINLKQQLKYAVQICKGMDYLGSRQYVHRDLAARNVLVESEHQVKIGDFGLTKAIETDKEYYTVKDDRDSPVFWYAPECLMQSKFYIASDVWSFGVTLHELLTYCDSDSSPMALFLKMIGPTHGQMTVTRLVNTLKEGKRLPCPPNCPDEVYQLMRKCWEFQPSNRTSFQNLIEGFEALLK
Chain of UniProt O60674 (whole entry, looked up): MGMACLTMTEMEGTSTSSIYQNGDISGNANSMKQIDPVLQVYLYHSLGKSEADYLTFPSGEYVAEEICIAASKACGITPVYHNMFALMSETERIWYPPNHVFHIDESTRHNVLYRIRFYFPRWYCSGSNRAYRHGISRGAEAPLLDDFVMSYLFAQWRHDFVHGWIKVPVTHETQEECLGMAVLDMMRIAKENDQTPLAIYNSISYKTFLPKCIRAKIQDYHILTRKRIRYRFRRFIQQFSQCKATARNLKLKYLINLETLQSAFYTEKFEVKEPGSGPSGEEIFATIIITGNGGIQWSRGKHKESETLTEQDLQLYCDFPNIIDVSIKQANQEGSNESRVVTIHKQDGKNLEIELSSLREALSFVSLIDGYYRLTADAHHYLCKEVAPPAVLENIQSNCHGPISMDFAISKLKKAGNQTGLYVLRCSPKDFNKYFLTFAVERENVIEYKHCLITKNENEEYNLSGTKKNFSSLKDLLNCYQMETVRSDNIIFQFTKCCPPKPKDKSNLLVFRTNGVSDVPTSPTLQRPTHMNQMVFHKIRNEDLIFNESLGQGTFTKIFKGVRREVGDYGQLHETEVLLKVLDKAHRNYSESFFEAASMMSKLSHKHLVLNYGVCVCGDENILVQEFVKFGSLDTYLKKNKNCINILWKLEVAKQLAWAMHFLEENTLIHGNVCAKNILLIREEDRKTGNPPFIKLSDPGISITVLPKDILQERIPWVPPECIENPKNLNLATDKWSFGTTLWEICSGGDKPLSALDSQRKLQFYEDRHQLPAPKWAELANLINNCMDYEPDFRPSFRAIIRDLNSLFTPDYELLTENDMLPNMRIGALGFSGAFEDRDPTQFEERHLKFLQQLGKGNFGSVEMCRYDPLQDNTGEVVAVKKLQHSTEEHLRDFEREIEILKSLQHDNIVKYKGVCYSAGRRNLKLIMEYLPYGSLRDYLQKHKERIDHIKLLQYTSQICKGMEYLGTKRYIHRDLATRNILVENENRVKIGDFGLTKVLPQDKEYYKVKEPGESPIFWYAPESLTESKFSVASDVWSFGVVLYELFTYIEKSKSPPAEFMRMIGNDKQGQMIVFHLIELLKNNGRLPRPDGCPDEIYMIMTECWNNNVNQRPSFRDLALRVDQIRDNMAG
Chain of UniProt Q06187 (whole entry, looked up): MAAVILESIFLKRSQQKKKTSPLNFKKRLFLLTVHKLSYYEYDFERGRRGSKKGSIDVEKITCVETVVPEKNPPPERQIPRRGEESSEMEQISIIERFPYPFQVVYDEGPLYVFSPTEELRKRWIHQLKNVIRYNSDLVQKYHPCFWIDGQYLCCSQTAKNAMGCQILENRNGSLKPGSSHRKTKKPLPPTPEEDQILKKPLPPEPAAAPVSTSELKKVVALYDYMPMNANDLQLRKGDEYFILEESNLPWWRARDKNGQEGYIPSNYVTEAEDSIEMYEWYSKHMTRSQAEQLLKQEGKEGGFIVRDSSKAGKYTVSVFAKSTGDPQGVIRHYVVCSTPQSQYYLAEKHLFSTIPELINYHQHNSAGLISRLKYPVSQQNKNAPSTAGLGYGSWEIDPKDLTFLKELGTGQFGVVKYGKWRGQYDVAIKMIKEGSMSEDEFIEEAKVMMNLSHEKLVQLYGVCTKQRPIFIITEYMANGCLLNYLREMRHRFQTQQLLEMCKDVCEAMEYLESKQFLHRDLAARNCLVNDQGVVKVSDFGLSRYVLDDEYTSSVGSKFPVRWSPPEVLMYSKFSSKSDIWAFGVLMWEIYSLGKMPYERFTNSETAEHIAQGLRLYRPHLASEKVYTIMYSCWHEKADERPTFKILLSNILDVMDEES

Block 1
Compound: Cc1c(NC(=O)c2cc(C(N)=O)nc3cc(F)ccc23)c(C(F)(F)F)nn1Cc1ccc(C(C)(C)C)cc1
Observed: cell-free assay
Technique: competition with immobilised ligand
Tested at: 1 µM
Endpoint: remaining binding
target = CDK3 (Homo sapiens, UniProt Q00526); value = 100%
target = Tyrosine-protein kinase JAK2, JH1 (JAK2, Homo sapiens, UniProt O60674); value = 100%
target = Myosin-IIIa (MYO3A, Homo sapiens, UniProt Q8NEV4); value = 100%
target = TIE1 (Homo sapiens, UniProt P35590); value = 100%
target = MARK3 (Homo sapiens, UniProt P27448); value = 100%
target = BTK (Homo sapiens, UniProt Q06187); value = 100%
target = MAP2K5 (Homo sapiens, UniProt Q13163); value = 78%
target = EPHA6 (Homo sapiens, UniProt Q9UF33); value = 100%
target = Tyrosine-protein kinase ABL1, non-phosphorylated (ABL1, Homo sapiens, UniProt P00519, Q252H); value = 84%
target = GRK7 (Homo sapiens, UniProt Q8WTQ7); value = 100%
target = MAP3K13 (Homo sapiens, UniProt O43283); value = 100%
target = GRK3 (Homo sapiens, UniProt P35626); value = 100%
target = ACVR1 (Homo sapiens, UniProt Q04771); value = 100%
target = STK33 (Homo sapiens, UniProt Q9BYT3); value = 96%
target = Tyrosine-protein kinase JAK1, JH1 (JAK1, Homo sapiens, UniProt P23458); value = 100%
target = PHKG2 (Homo sapiens, UniProt P15735); value = 83%
target = NTRK1 (Homo sapiens, UniProt P04629); value = 89%

Block 2
Cell line: HaCaT
Tested at: 100 µM
Time: 36 h
Endpoint: viability
Structure (SMILES) = Cc1onc(-c2ccccc2)c1-c1ccc(S(N)(=O)=O)cc1; value = 76.4%
Structure (SMILES) = Nc1ccn([C@@H]2CS[C@H](CO)O2)c(=O)n1; value = 95.1%
Structure (SMILES) = O=C(OOC(=O)c1ccccc1)c1ccccc1; value = 95.6%
Structure (SMILES) = CC1(O)CCC(C(C)(C)O)CC1 (centres unmarked); value = 86.3%
Structure (SMILES) = COc1cc(CNC(=O)CCCC/C=C/C(C)C)ccc1O; value = 42.9%
Structure (SMILES) = CC(C)C(=O)Nc1ccc([N+](=O)[O-])c(C(F)(F)F)c1; value = 50.1%
Structure (SMILES) = Cc1nc(-c2ccc(OCC(C)C)c(C#N)c2)sc1C(=O)O; value = 80%
Structure (SMILES) = CCCCC(=O)O[C@H]1CC[C@H]2[C@@H]3CCc4cc(O)ccc4[C@H]3CC[C@]12C; value = 4.63%
Structure (SMILES) = c1ccc(CC2=NCCN2)cc1; value = 83.9%
Structure (SMILES) = COc1cccc2c1C(=O)c1c(O)c3c(c(O)c1C2=O)C[C@@](O)(C(C)=O)C[C@@H]3O[C@H]1C[C@H](N)[C@H](O)[C@H](C)O1; value = 23.7%
Structure (SMILES) = CCC1(c2ccccc2)C(=O)NCNC1=O; value = 78.5%

Block 3
Target: Serine/threonine-protein kinase pim-2 (PIM2, Homo sapiens, UniProt Q9P1W9)
Chain of UniProt Q9P1W9 (whole entry, looked up): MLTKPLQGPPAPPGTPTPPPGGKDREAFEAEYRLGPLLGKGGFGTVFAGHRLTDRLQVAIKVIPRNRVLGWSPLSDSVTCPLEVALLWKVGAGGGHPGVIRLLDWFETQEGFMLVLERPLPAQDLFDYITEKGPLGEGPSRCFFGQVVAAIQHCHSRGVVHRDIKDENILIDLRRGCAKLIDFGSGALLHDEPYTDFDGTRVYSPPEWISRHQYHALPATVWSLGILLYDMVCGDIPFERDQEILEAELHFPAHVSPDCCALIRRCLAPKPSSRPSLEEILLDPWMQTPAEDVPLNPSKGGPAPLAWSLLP
Observed: enzyme activity
Action: inhibitor
Tested at: 0.5 µM
Relative to: control
Endpoint: remaining activity
SMILES = CNc1cc2c(Nc3cccc(Br)c3)ncnc2cn1; value = 102%
SMILES = Clc1ccc(Nc2nnc(Cc3ccncc3)c3ccccc23)cc1; value = 95.8%
SMILES = NC(=O)c1cccc(-c2cc(Nc3ccc(OC(F)(F)F)cc3)ncn2)c1; value = 115%
SMILES = O=C(c1ccccc1)c1ccc(N2CCOCC2)cc1O; value = 105%
SMILES = FC(F)(F)c1ccc(/C=C/c2nc(COc3ccc(CCCCn4ccnn4)cc3)co2)cc1; value = 116%
SMILES = O=C(O)/C=C/c1cc(Br)c(Br)c(Br)c1Br; value = 52.8%
SMILES = O=Nc1c(-c2c(O)[nH]c3ccccc23)[nH]c2ccccc12; value = 106%
SMILES = N#CC(c1ccnc(NCCc2cccnc2)n1)c1nc2ccccc2s1 (centres unmarked); value = 91.2%
SMILES = Nc1nc(Nc2ccc(S(N)(=O)=O)cc2)nn1C(=S)Nc1c(F)cccc1F; value = 106%
SMILES = CC(C)(C)c1nc2c3cc[nH]c(=O)c3c3cc(F)ccc3c2[nH]1; value = 90.8%
SMILES = CC(C)n1cnc2c(Nc3cccc(Cl)c3)nc(NCCO)nc21; value = 97%
SMILES = COc1cc2c(N3CCN(C(=O)Nc4ccc(OC(C)C)cc4)CC3)ncnc2cc1OCCCN1CCCCC1; value = 113%
SMILES = C[C@@H](N)[C@H]1CC[C@H](C(=O)Nc2ccncc2)CC1; value = 95.8%
SMILES = c1cc(-c2cnn3cc(-c4ccc(OCCN5CCCCC5)cc4)cnc23)ccn1; value = 112%
SMILES = N#C/C(=C(/N)SC1C=CC=CC1)c1cccc(C(O)c2ccncc2)c1 (centres unmarked); value = 105%
SMILES = NC(=O)c1ccc(-c2nc(-c3ccc4c(c3)OCCO4)c(-c3ccccn3)[nH]2)cc1; value = 103%
SMILES = O=C1NC(=O)/C(=C/c2ccc3c(c2)OC(F)(F)O3)S1; value = 91.9%
SMILES = O=c1c(-c2ccc(F)cc2)c(-c2ccncc2)[nH]n1-c1ccc(Cl)cc1; value = 114%
SMILES = CC(C)N(CCC(=O)c1ccc2ccccc2c1)Cc1ccccc1; value = 104%
SMILES = O=C1c2ccccc2-c2nc3nnnn3nc21; value = 92.8%
SMILES = CCCCc1c(-c2ccc(O)cc2)[nH]c2nccnc12; value = 121%
SMILES = CCN(CC)CCCCN1c2ccccc2Oc2ccc(Cl)cc21; value = 109%
SMILES = COc1cc2c(Nc3ccc(Br)cc3F)ncnc2cc1OCC1CCN(C)CC1; value = 99.4%

Block 4
Cell line: mouse MPNST tumor cells
Technique: high-content immunofluorescence imaging
Refers to: nuclear SOX9
Tested at: 10 µM
Time: 12 h
Notes: mean of 2 replicates
Relative to: DMSO control
Direction: higher = more nuclear SOX9
Endpoint: nuclear SOX9 intensity
SMILES = Oc1ccc(C2(c3ccccc3F)CCC(F)(F)CC2)cc1; value = 104 % of DMSO
SMILES = CCOC1O[C@H]([C@@H](COCc2ccccc2)OCc2ccccc2)[C@H](OCc2ccccc2)[C@H]1O (some centres unmarked); value = 104 % of DMSO
SMILES = O=C1S/C(=C\c2ccc(OCc3cccc(B(O)O)c3)cc2)C(=O)N1Cc1ccc(F)cc1; value = 93.4 % of DMSO
SMILES = Nc1ccc(S(N)(=O)=O)cc1; value = 99 % of DMSO
SMILES = O=S(=O)(c1cccc2cnccc12)N1CCNCC1; value = 103 % of DMSO
SMILES = CC(C)NCC(O)c1cc(O)cc(O)c1 (centres unmarked); value = 102 % of DMSO
SMILES = C=CC(N)CCC(=O)O (centres unmarked); value = 93.3 % of DMSO
SMILES = O=C1O[C@H]([C@@H](O)CO)C(O)=C1O; value = 96 % of DMSO
SMILES = CN1Cc2c(N)cccc2C(c2ccccc2)C1 (centres unmarked); value = 108 % of DMSO and 107 % of DMSO
SMILES = C[C@]12C=CC(=O)C=C1CC[C@@H]1[C@@H]2C(=O)C[C@@]2(C)[C@H]1CC[C@]2(O)C(=O)CO; value = 95.9 % of DMSO
SMILES = CCC1(c2c[nH]cn2)Cc2ccccc2C1; value = 96.6 % of DMSO

Excerpt of the above (block 3):
SMILES = O=Nc1c(-c2c(O)[nH]c3ccccc23)[nH]c2ccccc12; value = 106%
SMILES = N#CC(c1ccnc(NCCc2cccnc2)n1)c1nc2ccccc2s1 (centres unmarked); value = 91.2%
SMILES = Nc1nc(Nc2ccc(S(N)(=O)=O)cc2)nn1C(=S)Nc1c(F)cccc1F; value = 106%
SMILES = CC(C)(C)c1nc2c3cc[nH]c(=O)c3c3cc(F)ccc3c2[nH]1; value = 90.8%
SMILES = CC(C)n1cnc2c(Nc3cccc(Cl)c3)nc(NCCO)nc21; value = 97%
SMILES = COc1cc2c(N3CCN(C(=O)Nc4ccc(OC(C)C)cc4)CC3)ncnc2cc1OCCCN1CCCCC1; value = 113%
SMILES = C[C@@H](N)[C@H]1CC[C@H](C(=O)Nc2ccncc2)CC1; value = 95.8%
